Assay results collected from several papers.
Compare with care: the assays were run in different laboratories. Values joined by “and” are separate records of one study, mostly repeats; a detail may differ. Numbers after ± are the reported error.
NR3C1: Glucocorticoid receptor (NR3C1, Homo sapiens, UniProt P04150)

By UniProt entry, the sequences of proteins in these tests, tags left out. Residues count along the entry.
UniProt P04150, whole entry: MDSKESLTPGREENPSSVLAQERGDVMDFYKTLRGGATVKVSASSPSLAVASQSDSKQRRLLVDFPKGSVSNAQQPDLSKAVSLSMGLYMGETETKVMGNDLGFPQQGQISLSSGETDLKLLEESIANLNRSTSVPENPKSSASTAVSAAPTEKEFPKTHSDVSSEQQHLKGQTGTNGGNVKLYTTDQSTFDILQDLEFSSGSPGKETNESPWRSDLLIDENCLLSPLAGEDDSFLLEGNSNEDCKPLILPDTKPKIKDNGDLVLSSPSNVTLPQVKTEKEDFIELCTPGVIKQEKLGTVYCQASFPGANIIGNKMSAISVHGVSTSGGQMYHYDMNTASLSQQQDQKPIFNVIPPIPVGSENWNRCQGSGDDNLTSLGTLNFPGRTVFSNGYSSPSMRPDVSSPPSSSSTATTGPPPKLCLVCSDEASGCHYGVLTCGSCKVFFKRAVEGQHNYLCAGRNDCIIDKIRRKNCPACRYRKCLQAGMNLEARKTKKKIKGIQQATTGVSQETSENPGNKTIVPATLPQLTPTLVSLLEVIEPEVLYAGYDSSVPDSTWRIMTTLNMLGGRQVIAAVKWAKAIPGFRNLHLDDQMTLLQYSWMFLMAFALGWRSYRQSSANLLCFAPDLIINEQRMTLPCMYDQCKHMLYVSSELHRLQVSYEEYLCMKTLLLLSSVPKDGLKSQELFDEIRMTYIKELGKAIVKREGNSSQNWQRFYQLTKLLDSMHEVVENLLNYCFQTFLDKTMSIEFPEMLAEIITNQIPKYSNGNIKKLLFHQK
UniProt Q9ULI0, whole entry: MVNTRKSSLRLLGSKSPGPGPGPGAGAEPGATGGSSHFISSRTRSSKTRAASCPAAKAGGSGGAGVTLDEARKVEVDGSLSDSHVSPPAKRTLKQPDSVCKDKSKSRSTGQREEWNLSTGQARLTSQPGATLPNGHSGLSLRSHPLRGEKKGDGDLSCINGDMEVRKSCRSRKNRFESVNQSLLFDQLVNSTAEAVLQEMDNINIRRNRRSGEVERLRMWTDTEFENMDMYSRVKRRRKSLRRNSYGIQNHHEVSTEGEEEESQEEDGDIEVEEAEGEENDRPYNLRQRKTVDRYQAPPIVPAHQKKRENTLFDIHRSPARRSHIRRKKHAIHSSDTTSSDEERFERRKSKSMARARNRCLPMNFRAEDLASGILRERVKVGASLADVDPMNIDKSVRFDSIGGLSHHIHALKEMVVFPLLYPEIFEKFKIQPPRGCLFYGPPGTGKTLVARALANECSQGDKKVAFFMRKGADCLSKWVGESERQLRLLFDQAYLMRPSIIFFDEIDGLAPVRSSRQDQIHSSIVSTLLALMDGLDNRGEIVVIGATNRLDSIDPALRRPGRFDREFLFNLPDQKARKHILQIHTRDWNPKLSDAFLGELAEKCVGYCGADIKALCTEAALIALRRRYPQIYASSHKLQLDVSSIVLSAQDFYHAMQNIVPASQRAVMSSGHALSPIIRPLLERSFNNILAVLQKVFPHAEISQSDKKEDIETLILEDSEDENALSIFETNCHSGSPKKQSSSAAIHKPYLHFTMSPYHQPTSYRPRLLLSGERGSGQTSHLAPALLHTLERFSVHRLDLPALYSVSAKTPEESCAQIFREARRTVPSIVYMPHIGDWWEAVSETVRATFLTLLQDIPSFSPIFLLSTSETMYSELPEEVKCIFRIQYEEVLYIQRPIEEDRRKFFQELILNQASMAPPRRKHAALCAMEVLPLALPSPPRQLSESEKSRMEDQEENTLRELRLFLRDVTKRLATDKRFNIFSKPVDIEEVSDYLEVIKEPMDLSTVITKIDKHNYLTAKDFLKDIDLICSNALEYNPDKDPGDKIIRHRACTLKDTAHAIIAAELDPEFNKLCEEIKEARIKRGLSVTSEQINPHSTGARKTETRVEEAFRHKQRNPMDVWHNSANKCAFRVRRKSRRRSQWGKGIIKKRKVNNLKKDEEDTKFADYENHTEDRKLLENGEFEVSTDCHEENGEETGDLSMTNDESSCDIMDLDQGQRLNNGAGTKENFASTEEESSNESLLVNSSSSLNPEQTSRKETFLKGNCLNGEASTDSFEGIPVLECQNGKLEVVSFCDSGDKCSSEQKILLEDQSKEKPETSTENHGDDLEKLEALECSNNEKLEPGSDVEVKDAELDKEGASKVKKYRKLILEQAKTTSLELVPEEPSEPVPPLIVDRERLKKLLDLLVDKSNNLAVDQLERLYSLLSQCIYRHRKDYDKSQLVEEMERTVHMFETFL
UniProt Q9NYA1, 1-470 isoform 2: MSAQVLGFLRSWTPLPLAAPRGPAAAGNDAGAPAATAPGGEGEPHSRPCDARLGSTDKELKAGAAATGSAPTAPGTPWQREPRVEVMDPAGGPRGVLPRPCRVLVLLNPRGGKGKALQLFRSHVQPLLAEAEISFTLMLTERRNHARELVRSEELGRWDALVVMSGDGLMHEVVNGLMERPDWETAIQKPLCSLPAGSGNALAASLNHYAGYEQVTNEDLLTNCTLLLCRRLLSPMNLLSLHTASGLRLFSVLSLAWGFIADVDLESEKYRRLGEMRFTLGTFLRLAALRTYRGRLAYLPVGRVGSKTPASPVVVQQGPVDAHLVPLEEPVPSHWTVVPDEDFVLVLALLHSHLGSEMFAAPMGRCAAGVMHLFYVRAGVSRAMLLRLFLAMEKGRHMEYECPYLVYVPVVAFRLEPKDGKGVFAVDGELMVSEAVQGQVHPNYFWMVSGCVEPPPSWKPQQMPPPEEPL
UniProt P10636, whole entry, looked up: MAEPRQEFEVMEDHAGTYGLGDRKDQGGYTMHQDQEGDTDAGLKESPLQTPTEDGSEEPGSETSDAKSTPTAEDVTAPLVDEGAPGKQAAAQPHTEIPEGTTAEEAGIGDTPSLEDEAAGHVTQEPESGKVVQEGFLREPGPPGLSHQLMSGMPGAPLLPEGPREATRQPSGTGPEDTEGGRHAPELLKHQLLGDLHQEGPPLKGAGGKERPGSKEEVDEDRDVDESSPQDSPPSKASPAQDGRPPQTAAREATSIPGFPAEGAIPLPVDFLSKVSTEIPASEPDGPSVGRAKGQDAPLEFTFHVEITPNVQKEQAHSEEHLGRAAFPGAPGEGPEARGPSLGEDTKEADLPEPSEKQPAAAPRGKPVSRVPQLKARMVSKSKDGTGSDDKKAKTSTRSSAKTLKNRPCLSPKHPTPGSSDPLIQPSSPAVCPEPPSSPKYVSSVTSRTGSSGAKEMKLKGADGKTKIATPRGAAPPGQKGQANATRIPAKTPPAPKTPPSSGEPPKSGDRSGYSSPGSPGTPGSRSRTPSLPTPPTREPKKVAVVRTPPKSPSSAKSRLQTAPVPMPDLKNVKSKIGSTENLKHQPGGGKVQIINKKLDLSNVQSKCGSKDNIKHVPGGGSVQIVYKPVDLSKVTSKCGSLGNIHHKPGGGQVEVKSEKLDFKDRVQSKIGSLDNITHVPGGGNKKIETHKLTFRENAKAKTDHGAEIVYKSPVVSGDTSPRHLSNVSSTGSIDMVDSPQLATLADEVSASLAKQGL

Compound = O=c1/c(=C/c2ccccc2Cl)sc2nc3cc(Br)cnc3n12; target or system = Jurkat TAg T cells; assay = TCR signalling, immunoblot; conditions = 40 µM, 45 min preincubation, added: OKT3 5 min; scale = relative to: DMSO; quantity = phospho-p38 level; result = increased
Compound = CN1C(=O)c2ccccc2N(C)c2nc(Nc3ccc(N4CCC(O)CC4)cc3)ncc21; target or system = HT-29; assay = cell growth, CellTiter-Glo; conditions = 96 h; quantity = EC50; result = 0.055 µM
Compound = CN(C)S(=O)(=O)c1cccc(-n2sc3ccccc3c2=O)c1; target or system = mouse vascular smooth muscle cells; assay = Alizarin Red staining; conditions = 30 µM, 21 days, added: beta-glycerophosphate; scale = relative to: vehicle; quantity = mineralization; result = 53.8 ± 4.1%
Compound = O=C(Nc1cccnn1)N1CC(Oc2ccc(-c3ccccc3F)cn2)C1; system = healthy humans; conditions = oral, 50 to 500 mg daily, up to 7 days; quantity = tolerability; result = not toxic
Compound = O=C1c2cccc3cc([N+](=O)[O-])cc(c23)C(=O)N1NCCO; target or system = PC-12; assay = neurite outgrowth; conditions = 72 h, added: 500 pM NGF; quantity = IC50; result = 2.44 µM
Compound = CCc1c(-c2ccccc2)nn2c(=O)cc(-c3cccc(C(=O)O)c3)[nH]c12; system = mouse; conditions = 2 mg/kg, 24 h; quantity = plasma level; result = not detected
Compound = CC[C@@H]1C(=O)N(C)c2cnc(Nc3ccc(C(=O)NC4CCN(C)CC4)cc3OC)nc2N1C1CCCC1; target or system = ATPase family AAA domain-containing protein 2B (ATAD2B, Homo sapiens, UniProt Q9ULI0); conditions = 10 µM; quantity = delta Tm; result = -0.28 ± 0.12 °C
Compound = O=C1CCC(N2C(=O)c3cccc(NCCOCCOCCOCCN4CCN(c5ccc(-c6ccc7c(c6)C(=O)N(C(C(=O)Nc6nccs6)c6ccccc6)C7)cn5)CC4)c3C2=O)C(=O)N1 (stereo not drawn); target or system = Ba/F3 wild-type EGFR; assay = cell proliferation; quantity = EC50; result = > 10 µM
Compound = Cc1cc(C)c(CNC(=O)c2cc(-c3ccc(N4CCN(CCNC(=O)CC56CC7CC(CC(C7)C5)C6)CC4)nc3)cc3c2cnn3C(C)C)c(=O)[nH]1; target or system = MDA-MB-468; assay = western blot; conditions = concentration not given; quantity = H3K27me3 level; result = decreased
Compound = O=C1C(=Cc2ccc(O)c(O)c2)Oc2ccccc21; target or system = Sphingosine kinase 1 (SPHK1, Homo sapiens, UniProt Q9NYA1); assay = inhibitor, TLC; quantity = Ki; result = 8 µM
Compound = Nc1c(C(=O)Nc2c(F)cc(F)cc2Br)sc2nc3c(cc12)CCC3; target or system = H1299; conditions = concentration not given, 12 h; quantity = total SOD activity; result = increased
Compound = Fc1cc(-c2ccc3c(n2)[nH]c2ccncc23)ccn1 [isotope labelled]; target or system = Microtubule-associated protein tau, paired helical filaments (MAPT, Homo sapiens, UniProt P10636); assay = radioligand binding; system = PHF tau brain homogenate; conditions = 1.8 nM; scale = higher = more binding; quantity = specific binding; result = 2.02 a.u.
Compound = C[C@]12CCC(=O)C=C1CCC1C2CC[C@]2(C)C(n3cnc4ccccc43)=CCC12 (stereo partly drawn); target or system = LNCaP; assay = cell proliferation, XTT; conditions = 7 days, added: DHT 1 nM; quantity = IC50; result = 1.8 µM
Compound = COc1cc(CC(=O)NCC(NC(=O)C(CCCNC(=O)c2cccc(I)c2)NC(=O)C(Cc2ccc(C(F)(F)P(=O)(O)O)cc2)NC(=O)c2ccc(C)c(Br)c2)C(N)=O)ccc1O (stereo not drawn); target or system = primary mouse hepatocytes; assay = Western blot; conditions = 100 nM, added: insulin 5 nM, 5 min; scale = relative to: insulin alone; quantity = Foxo1 Ser253 phosphorylation; result = 2.1 fold
Compound = O=C1C=C(NCCc2cc(Br)c(O)c(Br)c2)C(=O)c2ncccc21; target or system = K7M2 GFP cells; system = mouse lung organ culture; conditions = 10 µM; quantity = metastatic growth; result = inhibited
Compound = O=c1/c(=C/c2ccc(-c3ccccc3[N+](=O)[O-])o2)sc2nc3cc(Br)cnc3n12; target or system = Jurkat TAg T cells; assay = TCR signalling, immunoblot; conditions = 40 µM, 45 min preincubation, added: OKT3 5 min; scale = relative to: DMSO; quantity = phospho-ERK1/2 level; result = increased
Compound = Fc1cccc(-n2cnc3c(NCc4nc5cc(Cl)ccc5[nH]4)nc(N4CCNCC4)nc32)c1; target or system = FLT3 ITD; assay = KINOMEscan competition binding; conditions = 10 µM; scale = relative to: control; quantity = remaining binding; result = 15%
Compound = CCCC1C/C=C/CCCCC(=NOCC(=O)N2CCCCC2)Cc2cc(O)cc(O)c2C(=O)O1 (stereo not drawn); target or system = SK-BR-3; assay = Her-2 depletion, item: Her-2; conditions = overnight; quantity = EC50; result = > 10 µM
Compound = c1ccc2[nH]c3c(N=NC4=NCCN4)c4ccccc4c-3nc2c1; target or system = K562; assay = cytotoxicity, XTT; conditions = 96 h; quantity = IC50; result = 0.18 ± 0.15 µM
Compound = C[C@]12CC[C@H](O)CC1=CC[C@@H]1[C@@H]2CC[C@]2(C)C(n3ccnn3)=CC[C@@H]12; target or system = LNCaP; assay = cell proliferation, XTT; conditions = 7 days, added: DHT 1 nM; quantity = IC50; result = 4.8 µM and 3.7 µM
Compound = Cc1cccc(NC(=O)c2nn(Cc3cnc[nH]3)c3c2CN(C(=O)c2ccc[nH]2)CC3)c1; target or system = IDH1 R132G AML cells; assay = CD45/SSC flow cytometry; conditions = 3 µM, 7 days; scale = relative to: DMSO; quantity = leukemic blast fraction; result = 1 ± 0.04 fold
Compound = COc1cc(N2CCN(C)CC2)ccc1Nc1ncc2c(n1)N(C)c1ccccc1C(=O)N2; target or system = HEK293; assay = inhibitor; conditions = 2 µM; quantity = ACK1 autophosphorylation; result = inhibited
Compound = O=C1OCCC=CCCC=CC(=NOCC(=O)N(Cc2ccccc2)Cc2ccccc2)Cc2cc(O)cc(O)c21; target or system = SK-BR-3; assay = Her-2 depletion, item: Her-2; conditions = overnight; quantity = EC50; result = > 10 µM
Compound = Cc1c(O)cc2c(c1C)O[C@](C)(CCCC(C)C)CC2; target or system = LNCaP and PC-3; assay = cell viability, MTT; conditions = 24 h, serum-free medium; quantity = IC50; result = 7 to 10 µM
Compound = CC1C=CCCCOC(=O)c2c(O)cc(O)c(Cl)c2CC(=NOCC(=O)N2CCCCC2)C=CC1 (stereo not drawn); target or system = SK-BR-3; assay = Her-2 depletion, item: Her-2; conditions = overnight; quantity = EC50; result = > 10 µM
Compound = CCN1CCN(Cc2ccc(Nc3ncc4c(n3)N(C)c3c(F)cccc3C(=O)N4C)cc2C(F)(F)F)CC1; target or system = HT-29; assay = cell growth, CellTiter-Glo; conditions = 96 h; quantity = EC50; result = 1.58 µM
Compound = C[C@H]1CCCN1Cc1cc2cnc(NC(=O)c3ccc4c(cnn4C)c3)cc2[nH]1; target or system = MV4;11; assay = mRNA decrease, RT-qPCR, item: MYC, HOXA9/10, MYB; conditions = 72 h; quantity = lowest effective concentration; result = 0.1 µM
Compound = C[C@H](CCC(=O)NN)[C@@H]1CC[C@@H]2[C@H]3CC[C@H]4C[C@@H](O)CC[C@@]4(C)[C@@H]3CC[C@]21C; target or system = NR3C1; assay = nuclear translocation, agonist, enzyme fragment complementation; quantity = EC50; result = > 9 µM
Compound = CCCC1CC=CCCC(C)=CC(=NOCC(=O)N(CC)CC)Cc2cc(O)cc(O)c2C(=O)O1 (stereo not drawn); target or system = SK-BR-3; assay = Her-2 depletion, item: Her-2; conditions = overnight; quantity = EC50; result = > 10 µM
Compound = O=c1/c(=C/c2ccc(-c3cc(Cl)cc(Cl)c3)o2)sc2nc3cc(Br)cnc3n12; target or system = Jurkat TAg T cells; assay = TCR signalling, immunoblot; conditions = 40 µM, 45 min preincubation, added: OKT3 5 min; scale = relative to: DMSO; quantity = phospho-p38 level; result = increased
Compound = CCC1CCCCN1C(=O)CON=C1C=CCCC=CCCOC(=O)c2c(O)cc(O)cc2C1 (stereo not drawn); target or system = SK-BR-3; assay = Her-2 depletion, item: Her-2; conditions = overnight; quantity = EC50; result = < 1 µM
Compound = CC(C)c1cc2c(N3CCN(C4=NCC(C)(C)S4)CC3)ncnc2s1; target or system = E2A-HLF transduced mouse BMC; assay = cell growth, MTT; quantity = GI50; result = > 50 µM
Compound = O=C1OC/C=C/CCCCC(=NOCC(=O)N2CCCCC2)Cc2cc(O)cc(O)c21; target or system = SK-BR-3; assay = Her-2 depletion, item: Her-2; conditions = overnight; quantity = EC50; result = > 10 µM
Compound = CCCCCCCCCCCCCC=C[C@@H](O)[C@H](CO[C@@H]1O[C@H](CO)[C@@H](O[C@@H]2O[C@H](CO)[C@H](O)[C@H](O[C@]3(C(=O)O)C[C@H](O)[C@@H](NC(C)=O)[C@H]([C@H](O)[C@@H](CO)O[C@]4(C(=O)O)C[C@H](O)[C@@H](NC(C)=O)[C@H]([C@H](O)[C@H](O)CO)O4)O3)[C@H]2O)[C@H](O)[C@H]1O)NC(=O)CCCCCCCCCCCCCCCCC; target or system = primary human NKT cells; conditions = APCs pretreated with compound, added: α-GalCer; quantity = cytokine production; result = decreased
Compound = O=C(O)CC1=C/C(=C\c2ccc(-c3ccccc3)cc2)c2ccc(F)cc21; target or system = OVCAR-3; assay = WST-1; conditions = up to 25 µM, 2 d; quantity = growth inhibition; result = no effect
Compound = CCN1CCN(Cc2ccc(Nc3ncc4c(n3)N(C)c3c(C)cccc3C(=O)N4C)cc2C(F)(F)F)CC1; target or system = HT-29; assay = cell growth, CellTiter-Glo; conditions = 96 h; quantity = EC50; result = 0.911 µM
Compound = CC[C@H]1CC[C@H]2[C@@H]3CC=C4C[C@H](OC(C)=O)[C@@H](N)C[C@@]4(C)[C@H]3CC[C@@]12C; target or system = NR3C1; assay = nuclear translocation, agonist, enzyme fragment complementation; quantity = EC50; result = > 9 µM
Compound = CCN1CCN(Cc2ccc(NC(=O)c3ccc(C)c(Oc4ncnc5cc(OC)c(OC)cc45)c3)cc2C(F)(F)F)CC1; target or system = THP-1; assay = CellTiter-Blue; conditions = up to 1 µM, 72 h; quantity = viability; result = no effect
Compound = Cc1ccc([C@H](CC(=O)O)NC(=O)Nc2c(O)c(C)cn(Cc3ccccc3Cl)c2=O)cc1; target or system = HUVEC; assay = nodes, segments and meshes; conditions = 5 and 25 µM; quantity = tube formation; result = decreased
